{"data": "Published values collected from several papers", "note": "Compare with care: the assays were run in different laboratories. “And” joins repeats or separate records; there may be more than shown. ± marks the error that the study gave."}
{"SMILES": "O=C(O)/C=C/C(=O)O.Oc1cccc2[nH]cc(CCNC3CCCCC3)c12", "system": "C57BL/6J mice", "setting": "subcutaneous, 0.1 mg/kg", "how to read": "reference: pre-session baseline", "endpoint": "body temperature change", "value": "0.2 ± 0.2 °C"}
{"SMILES": "CC(O)(CS(=O)(=O)c1ccc(F)cc1)C(=O)Nc1ccc(C#N)c(C(F)(F)F)c1 (stereo not shown)", "target or system": "THP-1", "test": "pyroptotic LDH release", "setting": "2 µM, 40 min, added: LPS then nigericin", "endpoint": "inhibition", "value": "-18.1%"}
{"SMILES": "COc1cc(CCNCc2ccccc2OC)c(OC)cc1Br", "target or system": "5-HT2A L123V mutant, human", "test": "Gq dissociation, BRET", "how to read": "reference: wild-type 5-HT2A", "endpoint": "fold loss in potency", "value": "4.4 fold"}
{"SMILES": "C#CCN(C)[C@H](C)Cc1ccccc1", "test": "HPLC-ECD", "system": "MPTP mouse model, striatum", "setting": "10 mg/kg", "endpoint": "striatal dopamine content", "value": "5.86 ng/mg tissue and 4.96 ng/mg tissue and 7.19 ng/mg tissue and 6.51 ng/mg tissue and 6.33 ng/mg tissue and 5.93 ng/mg tissue and 5.68 ng/mg tissue"}
{"SMILES": "CCCNCCc1c[nH]c2cccc(O)c12.CCCNCCc1c[nH]c2cccc(O)c12.O=C(O)/C=C/C(=O)O", "system": "C57BL/6J mice", "setting": "subcutaneous, 1 mg/kg", "how to read": "reference: pre-session baseline", "endpoint": "body temperature change", "value": "-0.2 ± 0.2 °C"}
{"SMILES": "O=NN(CCCl)C(=O)NC1CCCCC1", "target or system": "human coronavirus OC43", "test": "virus-induced cell killing", "system": "MRC-5", "setting": "screen", "endpoint": "maximum inhibition", "value": "4.61%"}
{"SMILES": "CC[C@H](C)[C@@H]1NC(=O)[C@H](CO)NC(=O)[C@@H]2CCCN2C(=O)[C@@H](NC(=O)CN)CSSC[C@@H]2NC(=O)CNC(=O)[C@H](C)NC(=O)[C@H](CC(C)C)NC(=O)[C@@H]3CSSC[C@@H](C(=O)NCC(=O)O)NC(=O)[C@H](Cc4ccccc4)NC(=O)CNC(=O)[C@H](CC(N)=O)NC(=O)[C@@H]4CCCN4C(=O)CNC(=O)[C@H](CSSC[C@H](NC(=O)[C@H](CCCNC(=N)N)NC(=O)[C@H](Cc4c[nH]cn4)NC(=O)[C@H](CCCNC(=N)N)NC(=O)[C@H](CCCCN)NC(=O)[C@H](C(C)C)NC(=O)[C@H](CCCNC(=N)N)NC(=O)[C@H](CC(N)=O)NC1=O)C(=O)N[C@@H](CCCCN)C(=O)N[C@@H](CCC(N)=O)C(=O)N[C@@H](CC(=O)O)C(=O)N[C@@H](CO)C(=O)N[C@@H](CC(=O)O)C(=O)N3)NC(=O)[C@H](C(C)C)NC2=O", "target or system": "HEK293-TB", "test": "Wnt signaling", "setting": "added: exogenous Wnt3a", "endpoint": "IC50", "value": "> 100000 nM"}
{"SMILES": "C[C@]12CC[C@H]3[C@@H](CC=C4CC(O)CC[C@@]43CO)[C@@H]1CCC2O (stereo partly shown)", "test": "refers to: CD11b, PAI-1", "system": "rat, GAN diet-induced MASH, white adipose tissue", "setting": "dose not given", "how to read": "reference: GAN diet plus vehicle", "endpoint": "inflammation marker level", "value": "decreased"}
{"SMILES": "CC(C)(C)NCCc1c[nH]c2cccc(O)c12.CC(C)(C)NCCc1c[nH]c2cccc(O)c12.O=C(O)/C=C/C(=O)O", "system": "C57BL/6J mice", "setting": "subcutaneous, 0.1 mg/kg", "how to read": "reference: pre-session baseline", "endpoint": "body temperature change", "value": "0 ± 0.2 °C"}
{"SMILES": "O=C(Cc1cccc(OC(F)(F)F)c1)Nc1ccc(CCCCc2nnc(NC(=O)Cc3ccccn3)s2)nn1", "target or system": "human coronavirus OC43", "test": "virus-induced cell killing", "system": "MRC-5", "setting": "maximum over 10 doses", "endpoint": "maximum inhibition", "value": "1.12%"}
{"SMILES": "C=CCNCCc1c[nH]c2cccc(O)c12.C=CCNCCc1c[nH]c2cccc(O)c12.O=C(O)/C=C/C(=O)O", "system": "C57BL/6J mice", "setting": "subcutaneous, 0.03 mg/kg", "how to read": "reference: pre-session baseline", "endpoint": "body temperature change", "value": "-0.2 ± 0.2 °C"}
{"SMILES": "CN1CCN(S(=O)(=O)c2cc([N+](=O)[O-])ccc2N(CCOS(C)(=O)=O)CCOS(C)(=O)=O)CC1", "system": "NSG mice, sample DB PDX", "setting": "intraperitoneal, 25 mg/kg weekly x3", "how to read": "reference: treated over vehicle", "endpoint": "EFS ratio (T/C)", "value": 9.2}
{"SMILES": "CCCCC1(CCCC)CN(c2ccccc2)c2cc(SC)c(OCC(=O)N[C@@H](C(=O)NCC(=O)O)c3ccccc3)cc2S(=O)(=O)C1", "test": "refers to: LDL cholesterol", "system": "human, serum", "setting": "20 mg once daily, day 8", "endpoint": "serum LDL-C", "value": "72.5 mg/dL"}
{"SMILES": "C=C1/C(=C\\C=C2/CCC[C@]3(C)[C@@H]([C@H](C)/C=C/[C@H](C)C(C)C)CC[C@@H]23)C[C@@H](O)C[C@@H]1O", "target or system": "human coronavirus OC43", "test": "virus-induced cell killing", "system": "MRC-5", "setting": "maximum over 10 doses", "endpoint": "maximum inhibition", "value": "0%"}
{"SMILES": "Cn1c(=O)ccc2ccc(F)c(CCNC[C@H]3CN(c4cnc5c(n4)NC(=O)CO5)C(=O)O3)c21", "target or system": "Fusobacterium spp.", "endpoint": "MIC50", "value": "< 0.015 µg/mL"}
{"SMILES": "CC(C)[C@H](N)C(=O)N1CCC[C@H]1B(O)O", "test": "GP-AMC cleavage", "system": "HEK-293T cell lysate", "setting": "10 µM, added: GP-AMC 500 µM", "endpoint": "inhibition", "value": "inhibited"}
{"SMILES": "C#Cc1cccc(Nc2ncnc3cc(OC)c(OCCCCCCC(=O)NO)cc23)c1", "target or system": "human coronavirus OC43", "test": "virus-induced cell killing", "system": "MRC-5", "setting": "maximum over 10 doses", "endpoint": "maximum inhibition", "value": "0%"}
{"SMILES": "CCCCNCCc1c[nH]c2cccc(O)c12.O=C(O)/C=C/C(=O)O", "system": "C57BL/6J mice", "setting": "subcutaneous, 0.1 mg/kg", "how to read": "reference: pre-session baseline", "endpoint": "body temperature change", "value": "0 ± 0.2 °C"}
{"SMILES": "Nc1ncnc2c1ncn2[C@@H]1O[C@@H]2COP(=O)(O)O[C@H]3[C@@H](O)[C@H](n4cnc5c(=O)[nH]cnc54)O[C@@H]3COP(=O)(O)O[C@H]2[C@H]1O", "target or system": "Zika virus", "test": "upregulated Reactome pathway, RNA sequencing, refers to: Adaptive Immune System (R-HSA-1280218)", "system": "HFF-1", "how to read": "reference: ZIKV-infected untreated", "endpoint": "fold enrichment", "value": 2.13}
{"SMILES": "C[C@H](C(=O)N[C@H]1COc2ccccc2[C@@H]1S(C)(=O)=O)c1ccc(F)cc1", "target or system": "KATP potassium channel, hamster", "test": "binding", "setting": "10 µM, Eurofins selectivity panel", "endpoint": "inhibition", "value": "5%"}
{"SMILES": "CCNC(=O)c1noc(-c2cc(Cl)c(O)cc2O)c1-c1ccc(OC)cc1", "target or system": "human coronavirus OC43", "test": "virus-induced cell killing", "system": "MRC-5", "setting": "screen", "endpoint": "maximum inhibition", "value": "32.2%"}
{"SMILES": "COc1c(CCC[P+](c2ccccc2)(c2ccccc2)c2ccccc2)cc2c(c1OC)OCO2.[I-]", "target or system": "COLO 205", "test": "SRB", "endpoint": "GI50", "value": "-5.92 log M"}
{"SMILES": "CCNCCc1c[nH]c2cccc(O)c12.CCNCCc1c[nH]c2cccc(O)c12.O=C(O)CCC(=O)O", "system": "C57BL/6J mice", "setting": "subcutaneous, 10 mg/kg", "how to read": "reference: pre-session", "endpoint": "body temperature change", "value": "-1.9 ± 0.4 °C"}
{"SMILES": "CN(Cc1cnc2nc(N)nc(N)c2n1)c1ccc(C(=O)N[C@@H](CCC(=O)O)C(=O)O)cc1", "target or system": "human coronavirus OC43", "test": "virus-induced cell killing", "system": "MRC-5", "setting": "maximum over 10 doses", "endpoint": "maximum inhibition", "value": "0%"}
{"SMILES": "CC[C@H](C)[C@@H]1NC(=O)[C@@H]2CCCN2C(=O)[C@H](CC(C)C)NC(=O)[C@H](CC(C)C)NC(=O)CNC(=O)[C@@H](NC(=O)[C@@H](NC(=O)[C@H](CC(=O)O)NC(=O)CNC(=O)[C@@H](NC(=O)[C@H](C)NC(=O)CNC(=O)[C@H](CCCCN)NC(=O)[C@H](CC(C)C)NC(=O)[C@H](CC(C)C)NC(=O)[C@H](CCCCN)NC(=O)CNC(=O)[C@@H](NC(=O)[C@@H](N)CC(C)C)C(C)C)C(C)C)C(C)C)CSSC[C@@H](C(=O)O)NC1=O", "test": "RNA-seq, refers to: Calhm6", "system": "mouse, traumatic brain injury model, frontal cortex and hippocampus", "setting": "dose not given", "how to read": "reference: TBI alone", "endpoint": "log2 fold change", "value": -2.98}
{"SMILES": "CC(C)N1CCC(NC2CCN(c3cccc(-c4cc5cc(F)ccc5[nH]4)c3)CC2)CC1", "target or system": "TK-10", "endpoint": "GI50", "value": "1710 nM"}
{"SMILES": "CC(C)NCCc1c[nH]c2cccc(O)c12.O=C(O)/C=C/C(=O)O", "system": "C57BL/6J mice", "setting": "subcutaneous, 0.1 mg/kg", "how to read": "reference: pre-session baseline", "endpoint": "body temperature change", "value": "-0.3 ± 0.2 °C"}
{"SMILES": "O=C(O)c1nn(Cc2ccc(Cl)cc2Cl)c2ccccc12", "target or system": "NLRP3 inflammasome (mouse)", "system": "mouse BMDM", "setting": "10 µM", "endpoint": "inhibition", "value": "35.5%"}
{"SMILES": "COc1cc(CCC[P+](c2ccccc2)(c2ccccc2)c2ccccc2)c(OC)c2c1OCO2.[I-]", "target or system": "CAKI-1", "test": "SRB", "endpoint": "GI50", "value": "-5.62 log M"}
{"SMILES": "COc1c(C)c2c(c(O)c1C/C=C(\\C)CCC(=O)O)C(=O)OC2", "target or system": "NCI-H292", "test": "cell proliferation", "system": "lung cancer", "endpoint": "IC50", "value": "182 nM"}
{"SMILES": "Nc1ccn([C@@H]2C=C(CO)[C@@H](O)[C@H]2O)c(=O)n1", "target or system": "human coronavirus OC43", "test": "virus-induced cell killing", "system": "MRC-5", "setting": "screen", "endpoint": "maximum inhibition", "value": "13%"}
{"SMILES": "CCOC(=O)Nc1ccc(NCc2ccc(F)cc2)cc1N", "target or system": "THP-1", "test": "pyroptotic LDH release", "setting": "2 µM, 40 min, added: LPS then nigericin", "endpoint": "inhibition", "value": "-16.9%"}
{"SMILES": "CC(C)(C(=O)NCC(F)(F)C(F)(F)F)C(=O)N[C@@H]1C(=O)Nc2ccccc2-c2ccccc21", "target or system": "human coronavirus OC43", "test": "virus-induced cell killing", "system": "MRC-5", "setting": "maximum over 10 doses", "endpoint": "maximum inhibition", "value": "0%"}
{"SMILES": "OC(Cn1cncn1)(Cn1cncn1)c1ccc(F)cc1F", "target or system": "Saccharomyces cerevisiae", "test": "cell growth", "system": "Pdr5 deleted, empty vector", "setting": "2^-3.322 µg/mL", "endpoint": "OD600", "value": "1.02 and 1.01"}
{"note": "A few entries again:"}
{"SMILES": "CCCCC1(CCCC)CN(c2ccccc2)c2cc(SC)c(OCC(=O)N[C@@H](C(=O)NCC(=O)O)c3ccccc3)cc2S(=O)(=O)C1", "test": "refers to: LDL cholesterol", "system": "human, serum", "setting": "20 mg once daily, day 8", "endpoint": "serum LDL-C", "value": "72.5 mg/dL"}
{"SMILES": "O=C(Cc1cccc(OC(F)(F)F)c1)Nc1ccc(CCCCc2nnc(NC(=O)Cc3ccccn3)s2)nn1", "target or system": "human coronavirus OC43", "test": "virus-induced cell killing", "system": "MRC-5", "setting": "maximum over 10 doses", "endpoint": "maximum inhibition", "value": "1.12%"}
{"SMILES": "O=NN(CCCl)C(=O)NC1CCCCC1", "target or system": "human coronavirus OC43", "test": "virus-induced cell killing", "system": "MRC-5", "setting": "screen", "endpoint": "maximum inhibition", "value": "4.61%"}
{"SMILES": "Nc1ccn([C@@H]2C=C(CO)[C@@H](O)[C@H]2O)c(=O)n1", "target or system": "human coronavirus OC43", "test": "virus-induced cell killing", "system": "MRC-5", "setting": "screen", "endpoint": "maximum inhibition", "value": "13%"}
{"SMILES": "Nc1ncnc2c1ncn2[C@@H]1O[C@@H]2COP(=O)(O)O[C@H]3[C@@H](O)[C@H](n4cnc5c(=O)[nH]cnc54)O[C@@H]3COP(=O)(O)O[C@H]2[C@H]1O", "target or system": "Zika virus", "test": "upregulated Reactome pathway, RNA sequencing, refers to: Adaptive Immune System (R-HSA-1280218)", "system": "HFF-1", "how to read": "reference: ZIKV-infected untreated", "endpoint": "fold enrichment", "value": 2.13}
